Published values from different studies.
A part holds a random share of what one study measured.

Study 1
Target: RNA binding protein fox-1 homolog 2, RRM domain, GST-SBP tag (RBFOX2, Homo sapiens, UniProt O43251-10, residues 100-194)
Method: RNA Bind-n-Seq
Form: RNA
Sample: in vitro
Concentration: 365 nM
Setting: natural RNA segment, single round, ends assumed
Baseline: no-protein control
Direction: higher = stronger binding
Shared flanks, not repeated: GGGAGUUCUACAGUCCGACGAUC … UGGAAUUCUCGGGUGCCAA
Residues (chain): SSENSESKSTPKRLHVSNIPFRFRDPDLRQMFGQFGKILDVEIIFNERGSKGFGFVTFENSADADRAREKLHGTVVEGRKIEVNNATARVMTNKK
Sequence	RBNS enrichment (R)
GUAUUUGUCUCCCUCACUAGAUUAUACGCUCCUUGUGGGCAGGGACUGUGUCUUUUUUCAUCUUUGUAUCUUUCAUGCACCUAGCAUAGUGCUUUGCACAUAGUAGUCAC	1.43
AAAAUAUUUUCUGCUUUUUUGACUUGCAUUUGAGAGUUUCUUGUUUCAGUAAAAAAAGAAAAGAAAAGAAAAAUAUCCGUUUUGGAAAAAUAACUUAAAUGCCCCUCCCC	0.561
CCAGAGGUCCCAGCAGUCACACUGCUCUGCAGGCCGGGCUCUCUUUAUAGCCAGAGAAAUCACCUUAAUGCAGUCUCUUUAGUUGUCUGCUGAAGCUGUAGUUAUUAUGG	0.225
AAGAAGCAGUGAGGUCUGGGAAUAUUCCAAAGUCAUGUCUCUGAAUAUGUGUCCUUGACGUGCAAGCUUUGUAAAACCCCAUCCCCGCUUAGGUGCGAGGCAUCACCUUC	0.382
GAUUGUGGAGUGUUUACUAGAUACAUAAUGAGGUGCUAAGUUGUGGGGAAGUCUCAUGUAACUCAGAACACUAUCCUGGUCCCAGGCUACACUGUGCACUACGUCUUUAG	0.561
GAAGGGGAAGAGGGUGACCUCAGCGGCUUUUCUCCCAAAAAUCGGCUGAAGGCUGGUUGUGGAUCCUUGUUCCUCUCCUGACCCCAUCUGGCUGCUGCCCCGUCUCCCAC	0.334
CAGCUGCCCCAUUCUUUUAACGUUGUAGGGCCUGCCCAUGGAGCGGACCCUCCUCUUUGGGCCUCGUGAGCUUUUUUGCUUAUCAUGUUCCAUUUCGUGCCGCUUUCCCC	0.399
CUGCACUGGGAAGGAAACAAAUGUGUAUAAACUGCUGUCAAUAAAUGACACCCAGACCUUCCGGCUCGCCAUGGGUUGGUUUUUUGUUUGUGGGAGCCGUGGGAUCAGAA	1.17
GCACCUCUGCCUGCGCUCGCACCUUCCUCCUCCUGAAACCAAGCUUUGAUUUAGAUUGAGUAAGAUUUACCCAGAAUGUCAGAUUCCUUUCCCUUUAGCACGUUUAAAGU	31.6

Study 2
Target: Interferon regulatory factor 3, full length, phosphomimetic (IRF3, Homo sapiens, UniProt Q14653, residues 1-427, S386D/S396D/S398D/S402D/T404D/S405D)
UniProt Q14653, sequence (whole entry, unmodified, looked up): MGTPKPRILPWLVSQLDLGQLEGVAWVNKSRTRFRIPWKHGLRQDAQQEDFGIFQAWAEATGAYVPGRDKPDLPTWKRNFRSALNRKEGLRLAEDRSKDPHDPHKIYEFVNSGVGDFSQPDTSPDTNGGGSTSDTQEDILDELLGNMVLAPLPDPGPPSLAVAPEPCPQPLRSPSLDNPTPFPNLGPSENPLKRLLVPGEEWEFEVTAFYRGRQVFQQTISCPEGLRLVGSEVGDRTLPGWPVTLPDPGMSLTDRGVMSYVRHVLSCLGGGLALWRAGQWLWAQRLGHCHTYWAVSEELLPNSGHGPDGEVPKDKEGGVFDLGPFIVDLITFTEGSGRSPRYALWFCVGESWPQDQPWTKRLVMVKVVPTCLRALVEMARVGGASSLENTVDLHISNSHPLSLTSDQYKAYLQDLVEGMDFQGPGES
Method: protein-binding microarray
Form: double-stranded DNA, one strand shown
Sample: in vitro
Concentration: 2540 nM top
Setting: 60-bp whole probe
Added: salmon DNA 0.4 mg/ml
Baseline: random background probes
Direction: higher = stronger binding
Shared flanks, not repeated: GCCTAGCAC … GTCTTGATTCGCTTGACGCTGCTG
Sequence	fitted relative affinity
TTCTCCATGGGTATGGCCTAGTGCTAG	0.455 z-score
GTGAGAAATAAGTTTCTTTTGTGCTAG	0.635 z-score
TTAGGTTTCGGTCTTGGTTAGTGCTAG	9.42 z-score
AACGGTTTCGGTTTCGGGACGTGCTAG	11.3 z-score
AACGGACTGGGTATCGGGACGTGCTAG	-0.125 z-score
GACGGTATCGATCTCGGGACGTGCTAG	3.29 z-score
AGACCATCCTGTATGGATGTGTGCTAG	0.48 z-score
TTAGGACTGGGACTGGGTTAGTGCTAG	-0.941 z-score
TTCGGACTGGGGACTGGGTTAGTGCTA	-0.847 z-score
TTAGGTTTCGGGTGTCGGTTAGTGCTA	3.73 z-score
TCAAATTTTGCTTCTAGACTGTGCTAG	0.482 z-score
GGCGGTCTCGGTATCGGGACGTGCTAG	1.6 z-score
TTTGCATTGCTTCTATAGGCGTGCTAG	-0.0482 z-score
CCCAAGATTGCCGTTTCCTAAGTGCTA	3.2 z-score
TTAGATTTCAGTTTCTATTAGTGCTAG	4.64 z-score
TTATGTCTCCTACTGCTTTAGTGCTAG	1.17 z-score
GACGATATCGGGTTTCGAGACGTGCTA	1.21 z-score
TTAGATCTCAGTTCCGATTAGTGCTAG	1.77 z-score
GACGGTCTCGGTCTCGGTACGTGCTAG	1.65 z-score
TTAGGTATCCTTCTCCTTTTGTGCTAG	7.31 z-score
GACGCTCTCAGTTTCGAGACGTGCTAG	2.15 z-score
CTAGGACTGCTTCTCCTTTAGTGCTAG	-0.0314 z-score
GACGATTTCAGGATCGAGACGTGCTAG	1.5 z-score
TCAATATTCACTATAGTACTGTGCTAG	0.598 z-score

Study 3
Target: Sal-like protein 4, full length isoform B (SALL4, Homo sapiens, UniProt Q9UJQ4-2, residues 1-616)
Method: universal PBM
Form: double-stranded DNA, one strand shown
Sample: in vitro
Concentration: not given
Setting: 8-mer, flanks averaged, mean of replicates
Direction: higher = stronger binding
Target sequence (chain): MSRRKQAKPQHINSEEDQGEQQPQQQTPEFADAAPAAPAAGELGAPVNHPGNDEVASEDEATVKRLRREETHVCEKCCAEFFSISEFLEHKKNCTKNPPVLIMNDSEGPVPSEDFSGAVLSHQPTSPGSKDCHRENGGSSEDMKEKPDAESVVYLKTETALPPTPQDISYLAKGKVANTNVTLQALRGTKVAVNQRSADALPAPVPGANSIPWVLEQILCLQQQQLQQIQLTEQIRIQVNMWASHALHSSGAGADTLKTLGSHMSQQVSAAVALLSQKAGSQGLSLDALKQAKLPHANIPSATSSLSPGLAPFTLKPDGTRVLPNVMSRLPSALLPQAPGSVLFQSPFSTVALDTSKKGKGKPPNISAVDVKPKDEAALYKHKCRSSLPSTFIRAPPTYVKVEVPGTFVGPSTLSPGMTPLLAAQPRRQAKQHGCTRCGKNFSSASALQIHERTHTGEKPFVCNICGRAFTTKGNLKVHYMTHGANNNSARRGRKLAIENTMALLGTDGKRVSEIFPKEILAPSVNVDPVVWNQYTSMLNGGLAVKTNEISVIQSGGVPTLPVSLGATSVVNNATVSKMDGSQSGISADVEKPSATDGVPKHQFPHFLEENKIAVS
Sequence	E-score
ATGGGTTG	-0.0489
ATGTAATC	0.265
CACCCCGA	-0.0996
CCCAATCC	-0.218
CCGCCCTC	-0.258
GAGCCAGC	-0.214
GCTCACAC	-0.193
GTCCTGGA	-0.153
GGACTGAA	-0.0153
AACGATCC	-0.122
ACTCTTAT	0.327
CGTAGAAA	0.157
CAGACTCG	-0.123
ATTTCTAC	0.161
CCACGATA	0.0462
ATGGTTCA	0.0902
ACTGTGCC	-0.0771
CGGTCTTC	-0.274
GCTATTCC	-0.146
CTTCGTAC	0.00322
ACACAGGG	-0.0342
ATGCAATC	0.0687
AAATGCTT	0.188
AGTTCGTG	-0.183
ATCTAAGC	-0.04

Study 4
Target: Histone acetyltransferase KAT6A, winged helix 2, GST fusion (KAT6A, Homo sapiens, UniProt Q92794, residues 85-181)
Method: protein binding microarray
Form: double-stranded DNA, one strand shown
Sample: in vitro
Concentration: not given
Setting: 8-mer, flanks averaged, mean of 2 arrays, mostly near background
Baseline: not given
Direction: higher = stronger binding
Construct (chain): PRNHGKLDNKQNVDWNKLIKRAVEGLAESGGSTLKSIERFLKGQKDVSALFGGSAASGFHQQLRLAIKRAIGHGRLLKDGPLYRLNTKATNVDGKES
Sequence	E-score
ACACTGCA	0.0281
GGGCTTCA	-0.141
CATTTTGG	0.0167
TACGTACA	-0.168
CGGCTGAA	0.103
AAACTAAC	0.00594
CATTTGGC	0.0557
ACGTCCCT	-0.0971
CGCCCTCA	-0.0917
CCACTCGA	0.109
CGCGCCCA	0.2
AGCATTCG	-0.0381
AGAGCTTA	0.0275
TACGGTGA	0.0475
AAATCGAA	-0.0537
ACGTAGCA	-0.1
GGGCACCA	0.0352
CACCCGAA	0.283
CGGACCGA	0.198
CGGGCGCC	0.191
ACCATTAG	-0.037
GATATTTA	0.0363
ATTACCCA	0.0384
AAACACGC	0.0766
ACCGATGC	0.00507

Repeated from above (study 2):
Sequence	fitted relative affinity
TTAGGTTTCGGGTGTCGGTTAGTGCTA	3.73 z-score
TTTGCATTGCTTCTATAGGCGTGCTAG	-0.0482 z-score
TCAATATTCACTATAGTACTGTGCTAG	0.598 z-score
TCAAATTTTGCTTCTAGACTGTGCTAG	0.482 z-score
TTAGATTTCAGTTTCTATTAGTGCTAG	4.64 z-score
GTGAGAAATAAGTTTCTTTTGTGCTAG	0.635 z-score
GACGGTCTCGGTCTCGGTACGTGCTAG	1.65 z-score
GACGATATCGGGTTTCGAGACGTGCTA	1.21 z-score
TTATGTCTCCTACTGCTTTAGTGCTAG	1.17 z-score
TTCGGACTGGGGACTGGGTTAGTGCTA	-0.847 z-score
TTAGGTATCCTTCTCCTTTTGTGCTAG	7.31 z-score
GACGATTTCAGGATCGAGACGTGCTAG	1.5 z-score
AACGGACTGGGTATCGGGACGTGCTAG	-0.125 z-score
